Literature values that unrelated publications cite.
Lines come from different studies, so protocols differ. ± marks the error that the study gave. Values after ≈ are worked out from the molar mass of the structure shown.
UniProt P11712, sequence (whole entry, looked up): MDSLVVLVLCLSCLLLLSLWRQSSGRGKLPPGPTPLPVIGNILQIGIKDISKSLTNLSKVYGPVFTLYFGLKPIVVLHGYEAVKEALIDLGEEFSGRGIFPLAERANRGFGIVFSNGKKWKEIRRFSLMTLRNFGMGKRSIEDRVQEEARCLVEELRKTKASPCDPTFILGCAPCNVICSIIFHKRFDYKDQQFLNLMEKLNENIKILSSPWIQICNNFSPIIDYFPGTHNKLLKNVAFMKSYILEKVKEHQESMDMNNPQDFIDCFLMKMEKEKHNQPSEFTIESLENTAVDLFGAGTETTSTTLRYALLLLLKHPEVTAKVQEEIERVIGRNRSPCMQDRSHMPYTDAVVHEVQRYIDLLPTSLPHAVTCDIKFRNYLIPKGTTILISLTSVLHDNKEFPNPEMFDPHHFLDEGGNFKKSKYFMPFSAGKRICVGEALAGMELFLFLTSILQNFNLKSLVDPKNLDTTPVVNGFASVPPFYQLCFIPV
UniProt P41595, sequence (whole entry, looked up): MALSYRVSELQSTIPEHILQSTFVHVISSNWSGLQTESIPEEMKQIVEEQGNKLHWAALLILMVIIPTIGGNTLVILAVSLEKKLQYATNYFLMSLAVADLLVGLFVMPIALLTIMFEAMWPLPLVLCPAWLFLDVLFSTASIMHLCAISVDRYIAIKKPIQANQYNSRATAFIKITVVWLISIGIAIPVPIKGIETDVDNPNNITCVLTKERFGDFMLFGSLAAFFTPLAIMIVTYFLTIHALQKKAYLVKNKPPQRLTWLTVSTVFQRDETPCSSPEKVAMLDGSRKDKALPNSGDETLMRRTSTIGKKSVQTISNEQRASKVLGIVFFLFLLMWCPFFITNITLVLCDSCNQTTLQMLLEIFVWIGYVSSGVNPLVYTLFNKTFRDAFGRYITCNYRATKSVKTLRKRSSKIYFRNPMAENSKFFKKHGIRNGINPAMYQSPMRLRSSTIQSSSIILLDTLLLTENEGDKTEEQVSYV
UniProt P10632, sequence (whole entry, looked up): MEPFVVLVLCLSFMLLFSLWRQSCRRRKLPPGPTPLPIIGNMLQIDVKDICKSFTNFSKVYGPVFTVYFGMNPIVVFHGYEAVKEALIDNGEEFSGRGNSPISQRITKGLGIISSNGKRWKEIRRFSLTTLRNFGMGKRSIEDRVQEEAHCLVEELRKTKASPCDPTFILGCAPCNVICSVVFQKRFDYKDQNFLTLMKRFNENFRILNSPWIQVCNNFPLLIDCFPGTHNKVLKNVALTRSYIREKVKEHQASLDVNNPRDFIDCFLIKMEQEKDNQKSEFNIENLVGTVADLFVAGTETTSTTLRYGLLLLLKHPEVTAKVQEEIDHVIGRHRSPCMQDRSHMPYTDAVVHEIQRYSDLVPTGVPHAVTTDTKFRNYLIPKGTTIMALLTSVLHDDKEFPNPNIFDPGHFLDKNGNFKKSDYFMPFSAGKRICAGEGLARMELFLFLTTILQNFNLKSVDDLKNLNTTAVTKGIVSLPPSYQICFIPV
UniProt P97678, sequence (whole entry, looked up): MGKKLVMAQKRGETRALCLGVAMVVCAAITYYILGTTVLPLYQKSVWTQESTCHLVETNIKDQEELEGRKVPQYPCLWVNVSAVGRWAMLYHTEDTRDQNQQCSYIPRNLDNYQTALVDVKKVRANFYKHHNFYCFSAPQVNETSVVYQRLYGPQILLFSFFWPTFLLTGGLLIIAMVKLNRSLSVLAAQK
UniProt Q96Q40, sequence (whole entry, looked up): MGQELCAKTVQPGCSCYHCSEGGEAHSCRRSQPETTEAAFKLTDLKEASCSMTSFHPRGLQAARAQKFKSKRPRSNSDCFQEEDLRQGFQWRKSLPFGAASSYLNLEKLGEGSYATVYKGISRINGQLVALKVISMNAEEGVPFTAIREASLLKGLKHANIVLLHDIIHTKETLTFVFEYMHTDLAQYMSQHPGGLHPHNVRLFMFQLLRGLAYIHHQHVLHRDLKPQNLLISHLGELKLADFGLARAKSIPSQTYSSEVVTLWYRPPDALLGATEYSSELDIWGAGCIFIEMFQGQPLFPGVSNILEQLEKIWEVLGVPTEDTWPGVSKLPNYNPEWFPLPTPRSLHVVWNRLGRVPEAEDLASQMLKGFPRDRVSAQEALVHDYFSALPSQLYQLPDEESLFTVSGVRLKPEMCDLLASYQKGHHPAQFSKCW

CCCCC/C=C\C[C@@H](O)/C=C/C=C/C=C\[C@@H](O)CCCC(=O)O  EC50 (Calcium-activated potassium channel subunit beta-1, with BK alpha subunit (Kcnmb1, Rattus norvegicus, UniProt P97678); ion current, activator): 1 nM
C=CC(=O)N1CCC[C@@H]1Cn1c(NC(=O)c2ccc(C(F)F)s2)nc2cc(CN[C@@H](C)C(C)(C)C)ccc21  kinact/KI (RLK (TXK); covalent inhibitor): 460000 M⁻¹ s⁻¹
O=C(C1CCOCC1)N1CC(=O)N2CCc3ccccc3[C@@H]2C1  EC50 (TRPM channel TRPM_PZQ (Schistosoma mansoni, UniProt A0A5K4F0X5)): 8100 ± 700 nM
OC[C@H]1O[C@@H](n2cnc3c(NC(C4CCC4)C4CCC4)nc(Cl)nc32)[C@H](O)[C@@H]1O  Ki (5-hydroxytryptamine receptor 2B (HTR2B, Homo sapiens, UniProt P41595); binding; added: [3H]LSD): > 10000 nM
OC(Cn1cncn1)(Cn1cncn1)c1ccc(F)cc1F  IC50 (aromatase (CYP19A1)): ~26800 nM
Nc1cc(C(F)(F)F)c(-c2nc(N3CCOCC3)nc(N3CCOCC3)n2)cn1  remaining activity (Cyclin-dependent kinase 15 (CDK15, Homo sapiens, UniProt Q96Q40); enzyme activity; 10 µM; relative to: untreated): 100%
CC1(C)S[C@@H]2[C@H](NC(=O)[C@H](N)c3ccccc3)C(=O)N2[C@H]1C(=O)O  MIC (Enterobacter cloacae; clinical isolate RKI-No_37/14): > 16 µg/mL
O=C[C@H](OC(=O)c1cc(O)c(O)c(O)c1)[C@@H](OC(=O)c1cc(O)c(O)c(O)c1)[C@H](OC(=O)c1cc(O)c(O)c(O)c1)[C@H](O)COC(=O)c1cc(O)c(O)c(O)c1  IC50 (tyrosinase; inhibitor): 54000 nM
CNC(C)C1CCC(N)C(OC2C(N)CC(N)C(OC3OCC(C)(O)C(NC)C3O)C2O)O1 (stereo not drawn)  MIC (Enterobacter cloacae; clinical isolate RKI-No_348/15): 8 µg/mL (≈ 16.8 µM)
O=C(O)CCCOc1ccc(F)cc1-c1cc(-c2ccccc2C(F)(F)F)n(-c2ccccc2)n1  Kd (FABP3; binding): 24 ± 7 nM
C#CCOc1ccccc1CCCCCC(=O)NS(C)(=O)=O  IC50 (Cytochrome P450 2C9 (CYP2C9, Homo sapiens, UniProt P11712); inhibitor): 11000 nM
CC(C)=CCc1cc2c(cc1O)O[C@H](c1ccc(O)cc1)CC2=O  EC50 (estrogen receptor beta; agonist): 680 nM
CC(=O)N[C@H](C(=O)N[C@H](C(=O)N[C@@H](Cc1ccccc1)C(=O)N[C@H](C(=O)N[C@@H](CO)C(=O)N[C@@H](Cc1c[nH]c2ccccc12)C(=O)N[C@@H](CCC(=O)O)C(=O)N[C@@H](CCC(=O)O)C(=O)N[C@@H](Cc1ccc(O)cc1)C(=O)N[C@@H](CC(C)C)C(=O)N[C@@H](CC(=O)O)C(=O)N[C@@H](Cc1c[nH]c2ccccc12)C(=O)N[C@H](C(N)=O)C(C)C)[C@@H](C)O)C(C)C)[C@@H](C)O  Kd (PCSK9): 660 ± 11 nM
CO[C@H]1/C=C/O[C@@]2(C)Oc3c(C)c(O)c4c(O)c(c(/C=N/N5CCN(C)CC5)c(O)c4c3C2=O)NC(=O)/C(C)=C\C=C\[C@H](C)[C@H](O)[C@@H](C)[C@@H](O)[C@@H](C)[C@H](OC(C)=O)[C@@H]1C  EC50 (Cytochrome P450 2C8 (CYP2C8, Homo sapiens, UniProt P10632); enzyme induction): 340 nM
CN(C)Cc1ccccc1Oc1ccc(I)cc1CO  Ki (serotonin transporter): 0.12 nM

Some of these lines once more:
CNC(C)C1CCC(N)C(OC2C(N)CC(N)C(OC3OCC(C)(O)C(NC)C3O)C2O)O1 (stereo not drawn)  MIC (Enterobacter cloacae; clinical isolate RKI-No_348/15): 8 µg/mL (≈ 16.8 µM)
CN(C)Cc1ccccc1Oc1ccc(I)cc1CO  Ki (serotonin transporter): 0.12 nM
